Measurements pooled from the literature.
Compare with care: the assays were run in different laboratories. “And” joins repeats or separate records; there may be more than shown. Numbers after ± are the reported error.

Compound | test | system | setting | plasma concentration
Cc1c(C(=O)O)ccc2c3n(nc12)[C@@H]1[C@H](C3)N(CC2CC2)[C@@]2(C(=O)Nc3cc(Cl)ccc32)[C@H]1c1cccc(Cl)c1F | – | female BALB/c nude mouse, SJSA-1 xenograft, plasma | oral, 1 mg/kg twice daily, 4 h | 1.08 µM
CSc1cc(Oc2ccnc3[nH]c(=O)cnc23)ccc1NC(=O)Nc1cc(C(C)(C)C)nn1-c1ccccc1 | – | nude mouse, female, plasma | oral, 20 mg/kg, 1 h after last dose | 75.4 µM and 94.3 µM and 66.8 µM and 66 µM and 70 µM and 44.1 µM
C[C@@H](O)[C@H]1C(=O)N2C(C(=O)O)=C(S[C@@H]3CN[C@H](C(=O)N(C)C)C3)[C@H](C)[C@H]12 | – | BALB/c mouse, male, plasma | intraperitoneal, 100 mg/kg, 10 h | 1960 ng/mL
CC(=O)NCc1cc2c(cc1F)C(=O)N(C1CCC(=O)NC1=O)C2 (stereo not shown) | – | CD-1 mouse, male | oral, 10 mg/kg parent drug, 1 h | 4.1 ± 1.8 ng/mL
CCN1CCN(Cc2ccc(NC(=O)c3ccc(C)c(NC(=O)c4cncc(-c5cccs5)c4)c3)cc2C(F)(F)F)CC1 | LC-MS/MS | C57BL/6 mouse, plasma | intraperitoneal, 20 mg/kg single dose, 0.5 h | 690 ng/mL and 755 ng/mL and 697 ng/mL
Cc1cc([C@H]2C[C@H]3[C@@H](C)SC(N)=N[C@@]3(c3ccc(F)cc3F)CO2)on1 | – | male 129/SVE mouse, plasma | subcutaneous, 50 mg/kg, 18 h | 0.03 µM
CC(C)(C)c1cc(NC(=O)Nc2ccc(Oc3ccnc4[nH]c(=O)cnc34)cc2F)n(-c2ccccc2)n1 | – | nude mouse, female, tumor | oral, 20 mg/kg, 1 h after last dose | 6.04 µM and 14.4 µM and 7.63 µM and 8.6 µM and 6.26 µM and 3.48 µM
O=[N+]([O-])c1ccc(-c2ccc(O)cc2)c2cccnc12 | – | ICR mouse, male | oral, 5 mg/kg, 0.5 h | 22 ng/mL
Cc1cc([C@H]2C[C@H]3[C@@H](CF)SC(N)=N[C@@]3(c3ccc(F)cc3F)CO2)on1 | – | male 129/SVE wild-type mouse, plasma | subcutaneous, 30 mg/kg, 7 h | 0.031 µM
CNC(=O)c1cc2c(Oc3ccc(NC(=O)C4(C(=O)Nc5ccc(F)cc5)CC4)cc3)ccnc2cc1OC | LC-MS/MS | CB.17-SCID mouse, Hs746T xenograft, plasma | oral, 30 mg/kg single dose, 4 h | 20.3 µM
CSc1cc(C)nc(SC)c1NC(=O)CN1CCN(CCSc2nc3ccccc3[nH]2)CC1.Cl | – | mouse Crl:CD1 (ICR) female, plasma | intranasal, 10 µL of 3.24 mg/mL in 0.01 N HCl daily, 120 min, 7 days dosing | 0.2 ng/mL and 0.3 ng/mL
c1ccc(-c2nc(N3CCC(c4ccccn4)C3)c3ccccc3n2)nc1 (stereo not shown) | – | mouse, Balb/c female, plasma | oral, 12.5 mg/kg, 1 h, mean, together with: aminobenzotriazole pretreatment | 2850 ng/mL
Cc1coc([C@H]2C[C@H]3[C@@H](CF)SC(N)=N[C@@]3(c3ccc(F)cc3F)CO2)n1 | – | male 129/SVE mouse, plasma | subcutaneous, 80 mg/kg, 3 h | 2.07 µM
c1csc(CNc2cc[nH]n2)c1 | – | mouse, CD-1, male, plasma | oral, 20 mg/kg as HCl salt, 2 h | 0.156 µM
O=C1CCC(N2Cc3cc(CO)c(F)cc3C2=O)C(=O)N1 (stereo not shown) | – | CD-1 mouse, male | oral, 10 mg/kg parent drug, 0.33 h | 18.2 ± 7.2 ng/mL
CC(C)n1ncc2c(C(=O)NCC3(C)CNC3)cc(C3CC3)nc21 | – | mouse BALB/c female, plasma | intraperitoneal, 50 mg/kg, 4 h | 1350 ng/mL and 1100 ng/mL and 1220 ng/mL and 1070 ng/mL
CCCCCN1C[C@H](O)[C@@H](O)[C@H](O)[C@@H]1CO | LC-MS/MS | mouse Hexb-/- total, plasma | 30 mg/kg/day, geometric mean | 262 ng/mL
CC(C)c1cc(C(=O)NCCN)c2cnn(C(C)C)c2n1 | – | mouse BALB/c female, plasma | intraperitoneal, 50 mg/kg, 0.5 h | 1780 ng/mL and 2600 ng/mL and 2330 ng/mL and 2530 ng/mL
C[C@H]1O[C@@H](O[C@H]2CC[C@@]3(C)[C@@H](CC[C@]4(C)[C@@H]3C=C[C@]35OC[C@@]6(CCC(C)(C)C[C@H]63)[C@@H](O)C[C@]54C)[C@]2(C)CO)[C@H](O)[C@@H](O[C@@H]2O[C@H](CO)[C@@H](O)[C@H](O)[C@H]2O)[C@H]1O | UHPLC-MS/MS | mouse, plasma | oral, 50 mg/kg, 1 h, pooled samples | 18 ng/mL and 14.1 ng/mL
